Measurements collected from several papers.
Numbered parts are unrelated; each lists some results of a single study. “And” joins repeats or separate records; there may be more than shown. Positions count from the first letter of the parent shown.
Chain of UniProt P49841 (whole entry, looked up): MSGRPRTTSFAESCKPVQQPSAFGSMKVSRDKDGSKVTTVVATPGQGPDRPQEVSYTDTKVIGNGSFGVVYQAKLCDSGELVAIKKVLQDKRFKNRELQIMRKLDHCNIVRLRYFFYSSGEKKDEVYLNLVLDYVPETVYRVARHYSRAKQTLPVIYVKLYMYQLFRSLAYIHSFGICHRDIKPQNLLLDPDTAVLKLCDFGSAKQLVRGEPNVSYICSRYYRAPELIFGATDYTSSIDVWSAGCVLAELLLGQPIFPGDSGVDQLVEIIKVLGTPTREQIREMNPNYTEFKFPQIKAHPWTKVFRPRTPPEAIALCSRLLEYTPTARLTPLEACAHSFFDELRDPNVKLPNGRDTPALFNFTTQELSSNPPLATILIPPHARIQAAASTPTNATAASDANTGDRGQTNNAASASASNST
Chain of UniProt Q9UHD2 (whole entry, looked up): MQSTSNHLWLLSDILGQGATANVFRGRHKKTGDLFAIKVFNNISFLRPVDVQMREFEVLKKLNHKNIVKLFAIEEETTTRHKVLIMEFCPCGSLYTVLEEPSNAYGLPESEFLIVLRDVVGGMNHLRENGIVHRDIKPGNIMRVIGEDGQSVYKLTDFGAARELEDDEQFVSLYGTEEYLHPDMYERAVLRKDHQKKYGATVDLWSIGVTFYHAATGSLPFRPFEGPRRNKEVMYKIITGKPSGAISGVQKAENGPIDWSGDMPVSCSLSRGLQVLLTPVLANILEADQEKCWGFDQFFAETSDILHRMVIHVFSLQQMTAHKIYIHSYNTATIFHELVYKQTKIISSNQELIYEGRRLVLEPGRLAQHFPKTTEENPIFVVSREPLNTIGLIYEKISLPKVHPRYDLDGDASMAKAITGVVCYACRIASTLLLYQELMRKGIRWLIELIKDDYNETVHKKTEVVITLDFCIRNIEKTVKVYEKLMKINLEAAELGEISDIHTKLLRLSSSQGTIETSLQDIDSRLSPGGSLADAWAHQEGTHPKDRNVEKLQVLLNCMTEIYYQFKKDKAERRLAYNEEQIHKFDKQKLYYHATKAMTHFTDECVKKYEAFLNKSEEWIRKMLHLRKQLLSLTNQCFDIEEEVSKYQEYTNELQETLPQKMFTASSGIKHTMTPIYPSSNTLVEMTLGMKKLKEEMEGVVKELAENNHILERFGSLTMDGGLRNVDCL
Chain of UniProt Q8WTQ7 (whole entry, looked up): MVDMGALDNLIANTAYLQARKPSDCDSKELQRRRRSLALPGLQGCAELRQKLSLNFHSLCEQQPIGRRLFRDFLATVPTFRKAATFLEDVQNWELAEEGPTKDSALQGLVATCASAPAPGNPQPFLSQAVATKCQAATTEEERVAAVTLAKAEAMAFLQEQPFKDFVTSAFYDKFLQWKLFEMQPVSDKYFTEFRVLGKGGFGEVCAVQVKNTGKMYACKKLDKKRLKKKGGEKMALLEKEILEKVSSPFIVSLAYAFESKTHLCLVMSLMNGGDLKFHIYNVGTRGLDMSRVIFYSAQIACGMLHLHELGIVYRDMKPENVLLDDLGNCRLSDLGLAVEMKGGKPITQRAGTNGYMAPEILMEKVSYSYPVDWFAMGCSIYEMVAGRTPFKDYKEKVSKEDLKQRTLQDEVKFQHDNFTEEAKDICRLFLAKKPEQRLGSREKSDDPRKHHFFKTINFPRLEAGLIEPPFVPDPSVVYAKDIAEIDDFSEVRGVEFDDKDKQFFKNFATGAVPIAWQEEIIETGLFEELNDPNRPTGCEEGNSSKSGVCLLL
Chain of UniProt P36896 (whole entry, looked up): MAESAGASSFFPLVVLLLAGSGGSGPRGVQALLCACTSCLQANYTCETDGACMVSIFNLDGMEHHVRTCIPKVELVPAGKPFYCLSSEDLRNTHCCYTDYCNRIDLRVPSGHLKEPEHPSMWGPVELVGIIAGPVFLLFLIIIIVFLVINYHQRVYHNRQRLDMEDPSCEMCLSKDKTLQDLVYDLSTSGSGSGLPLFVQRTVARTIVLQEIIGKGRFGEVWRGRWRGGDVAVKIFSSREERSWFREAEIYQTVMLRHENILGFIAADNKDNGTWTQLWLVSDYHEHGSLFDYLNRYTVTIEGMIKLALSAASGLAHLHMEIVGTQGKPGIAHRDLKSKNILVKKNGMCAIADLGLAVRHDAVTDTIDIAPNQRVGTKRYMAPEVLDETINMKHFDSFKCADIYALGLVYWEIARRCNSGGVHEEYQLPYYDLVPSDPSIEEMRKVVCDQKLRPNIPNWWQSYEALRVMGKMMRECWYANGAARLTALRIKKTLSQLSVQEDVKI
Chain of UniProt Q8IYT8 (whole entry, looked up): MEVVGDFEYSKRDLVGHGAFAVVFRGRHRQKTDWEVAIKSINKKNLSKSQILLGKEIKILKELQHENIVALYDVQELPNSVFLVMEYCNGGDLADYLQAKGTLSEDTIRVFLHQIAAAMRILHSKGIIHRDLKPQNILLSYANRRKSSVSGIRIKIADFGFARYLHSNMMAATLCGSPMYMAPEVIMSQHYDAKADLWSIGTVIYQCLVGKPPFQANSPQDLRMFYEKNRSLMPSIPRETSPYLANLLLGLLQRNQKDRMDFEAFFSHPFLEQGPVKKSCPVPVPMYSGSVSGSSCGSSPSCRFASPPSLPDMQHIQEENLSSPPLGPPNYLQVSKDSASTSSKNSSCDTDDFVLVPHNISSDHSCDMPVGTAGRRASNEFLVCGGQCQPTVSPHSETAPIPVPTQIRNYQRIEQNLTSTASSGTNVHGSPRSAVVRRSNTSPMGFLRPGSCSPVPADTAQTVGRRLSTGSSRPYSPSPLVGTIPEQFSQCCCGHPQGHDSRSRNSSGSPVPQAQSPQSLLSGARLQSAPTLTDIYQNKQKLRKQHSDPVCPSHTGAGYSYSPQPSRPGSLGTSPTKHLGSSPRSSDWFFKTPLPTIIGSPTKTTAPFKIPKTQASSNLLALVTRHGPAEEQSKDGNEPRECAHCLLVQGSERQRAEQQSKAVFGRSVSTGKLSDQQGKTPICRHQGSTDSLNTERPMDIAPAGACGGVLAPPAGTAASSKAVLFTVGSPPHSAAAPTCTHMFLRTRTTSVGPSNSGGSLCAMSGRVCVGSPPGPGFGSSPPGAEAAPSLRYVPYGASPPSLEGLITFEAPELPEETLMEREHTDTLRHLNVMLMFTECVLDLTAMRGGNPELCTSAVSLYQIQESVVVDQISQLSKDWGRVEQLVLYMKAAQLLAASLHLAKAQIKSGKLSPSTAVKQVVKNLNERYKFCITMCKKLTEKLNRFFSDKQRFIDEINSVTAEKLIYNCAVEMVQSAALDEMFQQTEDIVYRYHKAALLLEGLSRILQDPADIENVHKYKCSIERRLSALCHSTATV
Chain of UniProt P52333 (whole entry, looked up): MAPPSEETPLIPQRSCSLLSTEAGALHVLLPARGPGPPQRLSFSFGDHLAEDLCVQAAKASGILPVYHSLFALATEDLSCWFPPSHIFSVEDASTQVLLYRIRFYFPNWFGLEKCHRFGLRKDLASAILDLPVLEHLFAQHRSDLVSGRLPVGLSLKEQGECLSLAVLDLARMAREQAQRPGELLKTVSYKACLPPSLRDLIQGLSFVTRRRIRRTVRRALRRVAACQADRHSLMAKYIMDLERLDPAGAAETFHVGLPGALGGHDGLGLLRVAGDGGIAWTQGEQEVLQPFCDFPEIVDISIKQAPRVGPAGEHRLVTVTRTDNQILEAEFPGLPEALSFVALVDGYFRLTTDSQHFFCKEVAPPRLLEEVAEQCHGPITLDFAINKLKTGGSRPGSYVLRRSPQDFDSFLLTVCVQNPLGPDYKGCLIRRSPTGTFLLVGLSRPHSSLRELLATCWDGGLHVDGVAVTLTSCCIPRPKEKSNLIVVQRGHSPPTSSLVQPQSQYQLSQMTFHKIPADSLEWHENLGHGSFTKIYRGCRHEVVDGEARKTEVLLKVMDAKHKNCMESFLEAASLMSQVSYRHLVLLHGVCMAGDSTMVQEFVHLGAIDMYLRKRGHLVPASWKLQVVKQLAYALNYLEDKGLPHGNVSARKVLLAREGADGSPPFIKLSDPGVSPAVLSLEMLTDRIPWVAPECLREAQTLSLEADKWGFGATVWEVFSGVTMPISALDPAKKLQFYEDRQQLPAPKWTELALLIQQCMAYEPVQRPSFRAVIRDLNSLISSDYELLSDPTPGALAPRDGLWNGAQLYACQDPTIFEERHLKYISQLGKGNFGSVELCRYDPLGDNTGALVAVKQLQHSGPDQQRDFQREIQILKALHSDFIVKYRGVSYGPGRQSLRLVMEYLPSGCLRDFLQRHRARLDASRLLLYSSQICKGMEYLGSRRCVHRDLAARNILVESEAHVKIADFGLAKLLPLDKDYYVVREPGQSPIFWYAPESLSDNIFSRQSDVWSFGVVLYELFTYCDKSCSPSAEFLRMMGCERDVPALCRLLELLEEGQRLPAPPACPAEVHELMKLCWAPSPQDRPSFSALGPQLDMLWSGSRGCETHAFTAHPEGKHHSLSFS
Chain of UniProt P30291 (whole entry, looked up): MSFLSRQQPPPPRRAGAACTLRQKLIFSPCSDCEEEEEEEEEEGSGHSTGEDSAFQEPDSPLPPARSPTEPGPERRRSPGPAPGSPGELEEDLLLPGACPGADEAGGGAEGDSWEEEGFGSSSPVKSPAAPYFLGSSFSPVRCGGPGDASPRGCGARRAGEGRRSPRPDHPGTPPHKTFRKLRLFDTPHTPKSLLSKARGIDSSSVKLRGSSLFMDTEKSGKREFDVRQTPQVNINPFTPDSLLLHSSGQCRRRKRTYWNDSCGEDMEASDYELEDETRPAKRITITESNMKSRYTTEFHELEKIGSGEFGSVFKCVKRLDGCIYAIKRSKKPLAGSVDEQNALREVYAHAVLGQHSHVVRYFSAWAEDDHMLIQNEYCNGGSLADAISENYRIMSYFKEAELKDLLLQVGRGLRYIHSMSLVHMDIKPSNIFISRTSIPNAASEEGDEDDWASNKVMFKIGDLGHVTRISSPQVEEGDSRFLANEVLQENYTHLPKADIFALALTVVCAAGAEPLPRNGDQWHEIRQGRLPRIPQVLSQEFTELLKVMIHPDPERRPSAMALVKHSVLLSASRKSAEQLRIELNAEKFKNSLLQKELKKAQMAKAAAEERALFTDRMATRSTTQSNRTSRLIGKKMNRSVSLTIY

Set 1 — technique: Incucyte 3D growth; tested at: 30 µM; direction: higher = more growth
Structure (SMILES): CC(C)(C(=O)O)[C@H](NC(=O)Cc1cccc(I)c1)c1ccc2oc(=O)[nH]c2c1
IPC-298; 102 h — spheroid area: 2.71e+07 a.u. and 2.07e+07 a.u. and 2.49e+07 a.u. and 2.97e+07 a.u. and 3.31e+07 a.u. and 2.77e+07 a.u.
The spheroid area was 8.62e+07 a.u. and 7.86e+07 a.u. and 8.98e+07 a.u. and 9.49e+07 a.u. and 8.84e+07 a.u. and 1.09e+08 a.u. (A375; 150 h).
It gave 4.55e+06 a.u. and 5.83e+06 a.u. and 8.39e+06 a.u. and 9.57e+06 a.u. and 8.83e+06 a.u. and 1.2e+07 a.u. for spheroid area (A375; 12 h).
NCI-H358; 264 h — spheroid area: 1.25e+07 a.u. and 1.02e+07 a.u. and 9.66e+06 a.u.
NCI-H358; 174 h — spheroid area: 9.36e+06 a.u. and 6.39e+06 a.u. and 6.06e+06 a.u. and 6.18e+06 a.u. and 8.16e+06 a.u. and 6.19e+06 a.u.
It gave 3.19e+08 a.u. and 3.17e+08 a.u. and 3.25e+08 a.u. and 3.44e+08 a.u. and 3.34e+08 a.u. for spheroid area (PC-9; 30 h).
The spheroid area was 3.05e+07 a.u. and 3.12e+07 a.u. and 1.85e+07 a.u. and 3.51e+07 a.u. and 3.21e+07 a.u. and 4.86e+07 a.u. (KP-4; 198 h).
The spheroid area was 1.75e+08 a.u. and 1.77e+08 a.u. and 1.99e+08 a.u. and 2.03e+08 a.u. and 1.79e+08 a.u. and 1.86e+08 a.u. (A375; 270.52 h).

Set 2 — target: CCNA1, cyclin fold, Cln2 fusion (human); technique: yeast growth competition, sequencing; sample: yeast; setting: weak parent motif; relative to: not given; direction: higher = stronger binding
Starting sequence: viral docking peptide; KKVKRRLFETREL; partner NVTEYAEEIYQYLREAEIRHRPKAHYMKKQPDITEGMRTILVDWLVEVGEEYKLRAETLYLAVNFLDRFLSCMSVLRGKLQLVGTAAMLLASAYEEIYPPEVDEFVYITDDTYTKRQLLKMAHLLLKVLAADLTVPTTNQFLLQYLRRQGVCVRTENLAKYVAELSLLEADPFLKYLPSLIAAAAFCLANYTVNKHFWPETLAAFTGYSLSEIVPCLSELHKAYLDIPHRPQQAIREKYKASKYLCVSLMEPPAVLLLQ
Under “normalised enrichment score”, `KKVKRRLFATREL [E9A]` is recorded as 0.426.
`KKVKRRLAETREL [F8A]` — result for “normalised enrichment score”: 0.426.
Under “normalised enrichment score”, `KKVKRRLFETRAL [E12A]` is recorded as 0.448.
`KKVKRRLFEAREL [T10A]` — result for “normalised enrichment score”: 0.41.
`KKVKKRLFETREL [R5K]`: “normalised enrichment score” 0.286.
Under “normalised enrichment score”, `KKAKRRLFETREL [V3A]` is recorded as 0.256.
`KKVKRRLFETAEL [R11A]`: “normalised enrichment score” 0.782.
`KAVKRRLFETREL [K2A]`: “normalised enrichment score” 0.648.
`KKVKARAFETREL [R5A L7A]`: “normalised enrichment score” 0.0968.

Set 3 — observed: enzyme activity; mode: inhibitor; tested at: 0.5 µM; relative to: control
Compound: N/C(=N\[N+](=O)[O-])N/N=C\c1ccc(-c2cccc([N+](=O)[O-])c2)o1
The remaining activity was 117% (Glycogen synthase kinase-3 beta (GSK3B, Homo sapiens, UniProt P49841)).
Tyrosine-protein kinase JAK3 (JAK3, Homo sapiens, UniProt P52333) — remaining activity: 103%.
It gave 101% for remaining activity (Activin receptor type-1B (ACVR1B, Homo sapiens, UniProt P36896)).
For Serine/threonine-protein kinase Nek1 (NEK1, Homo sapiens, UniProt Q96PY6): remaining activity read 97.7%.
The remaining activity was 98.6% (Tyrosine-protein kinase Lck (LCK, Homo sapiens, UniProt P06239)).
The remaining activity was 99.6% (Angiopoietin-1 receptor (TEK, Homo sapiens, UniProt Q02763)).
Ribosomal protein S6 kinase alpha-2 (RPS6KA2, Homo sapiens, UniProt Q15349) — remaining activity: 94.5%.
For Mitogen-activated protein kinase kinase kinase 5 (MAP3K5, Homo sapiens, UniProt Q99683): remaining activity read 92.5%.
The remaining activity was 97% (Rhodopsin kinase GRK7 (GRK7, Homo sapiens, UniProt Q8WTQ7)).
It gave 88.4% for remaining activity (Mitogen-activated protein kinase 3 (MAPK3, Homo sapiens, UniProt P27361)).
The remaining activity was 100% (Wee1-like protein kinase (WEE1, Homo sapiens, UniProt P30291)).
For Serine/threonine-protein kinase TBK1 (TBK1, Homo sapiens, UniProt Q9UHD2): remaining activity read 104%.
Macrophage-stimulating protein receptor (MST1R, Homo sapiens, UniProt Q04912) — remaining activity: 97.6%.
The remaining activity was 87.3% (Serine/threonine-protein kinase ULK2 (ULK2, Homo sapiens, UniProt Q8IYT8)).

Other studies, line by line
The inhibition of C[C@]12CC[C@H](O)CC1=CC[C@@H]1[C@@H]2CC[C@@]2(C)[C@H]1CC[C@]2(C)O is reported as -11.9% (Sarcocystis neurona; parasite growth; 10 µM, 96 h, secondary screen).

For quick reference, copied from above (set 2):
`KKVKRRLFEAREL [T10A]` — result for “normalised enrichment score”: 0.41.
`KKVKRRLFETAEL [R11A]`: “normalised enrichment score” 0.782.
Under “normalised enrichment score”, `KKVKRRLFATREL [E9A]` is recorded as 0.426.
Under “normalised enrichment score”, `KKAKRRLFETREL [V3A]` is recorded as 0.256.
`KKVKARAFETREL [R5A L7A]`: “normalised enrichment score” 0.0968.
